Measured values from different studies.
Each line is one published result; not all experiments were run side by side. Several values in a cell are separate wells, animals, samples, runs or records. ± gives the spread as reported.

For `N#Cc1ccn2c(-c3ccncc3)c(-c3ccc(F)cc3)nc2c1`, “log2 fold change” read 0.0453 (kinase binding, competitor, MIB/MS competition, item: MKK2; Candida albicans cell lysate; 1 µM; reference: DMSO).
For `Cc1noc(C)c1-c1cc(C(O)(c2ccccn2)c2ccccn2)c2nc(C3CC3)[nH]c2c1`, the maximum inhibition was 42.2% (item: CCR2 expression; human, peripheral blood; 2 mg, day 8, 1599 study).
With `Oc1ccc(Br)cc1C=NCCN1CCOCC1` the inhibition was 39.4% (nitric oxide scavenging; 200 µM).
`NCC(=O)Nc1cncc(-c2nn3c(=O)cc(N4CCNCC4)nc3s2)c1` has an inhibition of 23.8% (ADP-induced platelet aggregation, light transmission aggregometry; human, stable CAD on aspirin, ex vivo platelets; subcutaneous, 0.05 mg/kg, 5 min post-dose, median value, added: ADP 20 µM).
`CSCCNc1nc(SCCC(F)(F)F)nc2c1ncn2[C@@H]1O[C@H](COP(=O)(O)OP(=O)(O)C(Cl)(Cl)P(=O)(O)O)[C@@H](O)[C@H]1O` — result for “platelet aggregation AUC”: 28.1 ± 14.1 U (ADP-induced platelet aggregation, Multiplate aggregometry; human patients, whole blood; dose not given, 15 min).
The T/C ratio of `Cn1nnc2c(C(N)=O)ncn2c1=O` is reported as -68% (mouse subcutaneous GBM PDX sample F; subcutaneous, dose not given).
`COc1ccc(-c2cncc(N[C@@H](C)c3cccc(NC(=O)c4cncc(C)c4)c3)n2)cc1OC` gave a fold change of 12.7 (item: rno-miR-381-3p; rat SU5416/hypoxia model, lung; dose not given; reference: SU5416/hypoxia vehicle).
With `O=C(O)CNC(=O)Cc1ccccc1` the sarcomere length was 1.72 µm (ventricular cardiomyocytes, C57BL/6 mouse; dose not given, 0.364 s).
For `O[C@H]1CCCN[C@@H]1CCCn1cnc2c(Cl)c(Cl)ccc21`, the maximum reduction was 38.8% (ELISA, item: Pro-C3; healthy human volunteers, serum; intraduodenal, 200 mg twice daily, day 14, multiple ascending dose).
The EC50 of `CC(C)C[C@@H](NC(=O)[C@H](C)NC(=O)CNC(=O)[C@@H](NC=O)C(C)C)C(=O)N[C@@H](C)C(=O)N[C@@H](C(=O)N[C@H](C(=O)N[C@@H](C(=O)N[C@@H](Cc1c[nH]c2ccccc12)C(=O)N[C@H](CC(C)C)C(=O)N[C@@H](Cc1c[nH]c2ccccc12)C(=O)N[C@H](CC(C)C)C(=O)N[C@@H](Cc1c[nH]c2ccccc12)C(=O)N[C@H](CC(C)C)C(=O)N[C@@H](Cc1c[nH]c2ccccc12)C(=O)NCCO)C(C)C)C(C)C)C(C)C` is reported as 45.6 ± 10.4 nM (H+/Na+ transport, pyranine pH-gradient; EYPC/cholesterol LUVs 2:1).
`O=C1N(Cc2ccccc2Cl)c2ccccc2C12NN=C(c1ccccc1)S2` (stereo not drawn) has a T/C of over 100% (SK-BR-3 xenograft, mouse; oral, 1277.5 mg/kg total, subcutaneous xenograft; reference: vehicle).
`[Cl-].[Cl-].[Pt+2].[Ru+2].c1ccc(-c2nc3ccccc3nc2-c2ccccn2)nc1.c1cnc2c(c1)ccc1cccnc12.c1cnc2c(c1)ccc1cccnc12`: “negative activation entropy” 174 ± 12 J/(mol·K) (chloride substitution, UV-vis kinetics; aqueous buffer; concentration not given, pH 7.2, second substitution step, added: L-methionine).
Under “change, mean 24 h, plasma glucose”, `Cc1ccc([C@@H]2O[C@H](CO)[C@@H](O)[C@H](O)[C@H]2O)cc1Cc1ccc(-c2ccc(F)cc2)s1` is recorded as -29 mg/dL (Japanese type 2 diabetes patients; 100 mg, day 16; reference: day 0).
`C[C@@H](O)CCOC(=O)C[C@@H](C)O` has a plasma insulin of 481 pg/mL (human; oral drink, dose not given, 180 min post dose, median, all participants).
For `C[C@H]1C[C@H]2CSC(N)=N[C@@]2(c2nc(NC(=O)c3ccc(OC(F)F)cn3)cs2)CO1`, “percent change from baseline” read -41.1% (item: Aβ1-40; healthy adults, plasma; 3 mg single dose, 4 h post-dose; reference: placebo).
Under “change from baseline”, `N#Cc1ccc2c(c1)[C@H]1CCCN(C(=O)c3ccc4[nH]cnc4c3)[C@H]1C2` is recorded as -1.63 mg/dL (item: HDL; human; 80 mg once daily, day 28, adjusted mean).
`CCN1CCN(Cc2ccc(Nc3ncc(F)c(-c4cc(F)c5nc6n(c5c4)[C@H](C)CCC6)n3)nc2)CC1` gave a DCR of 70.8% (RECIST v1.1; advanced solid tumour patients; dose not given, Phase Ia monotherapy).
`NC/C(=C\F)COc1cccc(Cn2c(=S)[nH]c(=O)c3[nH]cnc32)c1` has a fibrosis area of 7.91% and 3.81% and 6.6% and 14.3% and 8.35% and 3.84% and 5.55% (mouse, unilateral ureteral obstruction, left kidney (obstructed); dose not given).

Excerpt of the above:
The EC50 of `CC(C)C[C@@H](NC(=O)[C@H](C)NC(=O)CNC(=O)[C@@H](NC=O)C(C)C)C(=O)N[C@@H](C)C(=O)N[C@@H](C(=O)N[C@H](C(=O)N[C@@H](C(=O)N[C@@H](Cc1c[nH]c2ccccc12)C(=O)N[C@H](CC(C)C)C(=O)N[C@@H](Cc1c[nH]c2ccccc12)C(=O)N[C@H](CC(C)C)C(=O)N[C@@H](Cc1c[nH]c2ccccc12)C(=O)N[C@H](CC(C)C)C(=O)N[C@@H](Cc1c[nH]c2ccccc12)C(=O)NCCO)C(C)C)C(C)C)C(C)C` is reported as 45.6 ± 10.4 nM (H+/Na+ transport, pyranine pH-gradient; EYPC/cholesterol LUVs 2:1).
`COc1ccc(-c2cncc(N[C@@H](C)c3cccc(NC(=O)c4cncc(C)c4)c3)n2)cc1OC` gave a fold change of 12.7 (item: rno-miR-381-3p; rat SU5416/hypoxia model, lung; dose not given; reference: SU5416/hypoxia vehicle).
For `Cc1noc(C)c1-c1cc(C(O)(c2ccccn2)c2ccccn2)c2nc(C3CC3)[nH]c2c1`, the maximum inhibition was 42.2% (item: CCR2 expression; human, peripheral blood; 2 mg, day 8, 1599 study).
